Values quoted from earlier work, collected from citations in different studies.
Protocols differ between the studies behind these lines. Numbers after ± are the reported error.

SMILES	tested on	test	test system	conditions	endpoint	result
FC(F)OC(F)(F)C(F)Cl (stereo not shown)	CYP2C9	inhibitor	–	Tox21 screening	IC50	inactive
C=C[C@@H]1C[C@]1(NC(=O)[C@@H]1C[C@@H]2CN1C(=O)[C@H](C(C)(C)C)NC(=O)O[C@@H]1C[C@H]1CCCCCc1nc3ccc(OC)cc3nc1O2)C(=O)NS(=O)(=O)C1CC1	CYP1A2	–	human liver microsomes	–	IC50	> 100 µM
CC(=O)C(C)n1ncn(-c2ccc(N3CCN(c4ccc(OC[C@H]5CO[C@](Cn6cncn6)(c6ccc(Cl)cc6Cl)O5)cc4)CC3)cc2)c1=O (stereo partly shown)	CYP3A4 human	inhibitor	–	with: midazolam	IC50	0.007 µM
COc1cc([C@@H]2c3cc4c(cc3[C@@H](O[C@@H]3O[C@@H]5CO[C@@H](C)O[C@H]5[C@H](O)[C@H]3O)[C@H]3COC(=O)[C@H]23)OCO4)cc(OC)c1O	MRP1	inhibitor	–	–	IC50	48 µM
O=C(O)[C@H](c1ccccc1)[C@H]1CCCCN1	–	–	human, CES1 wild type, plasma	oral, 10 mg methylphenidate, single dose after breakfast, median	AUC(0-inf)	609 ng·h/mL
O=C(O)C(F)(F)C(F)(F)C(F)(F)C(F)(F)C(F)(F)F	CYP2C9	inhibitor	–	Tox21 screening	IC50	17.5 ± 4.37 µM
O=C(Oc1ccc(Cl)cc1)N1CCc2c([nH]c3ccc(Cl)cc23)C1c1ccc(O)cc1 (stereo not shown)	BCRP	substrate transport, inhibitor	–	–	IC50	1.57 µM
CCCNC(=O)NS(=O)(=O)c1ccc(Cl)cc1	–	–	mouse	–	fraction unbound	0.441
CCCCCOc1ccc(-c2ccc(-c3ccc(C(=O)N[C@H]4C[C@@H](O)[C@@H](O)NC(=O)[C@@H]5[C@@H](O)[C@@H](C)CN5C(=O)[C@H]([C@@H](C)O)NC(=O)[C@H]([C@H](O)[C@@H](O)c5ccc(O)cc5)NC(=O)[C@@H]5C[C@@H](O)CN5C(=O)[C@H]([C@@H](C)O)NC4=O)cc3)cc2)cc1	–	–	human renal impairment severe	50 mg single dose	AUC(0-inf)	56500 ± 10400 ng·h/mL
FC1(F)C(F)(F)C(F)(F)C2(F)C(F)(C1(F)F)C(F)(F)C(F)(F)C1(F)C(F)(F)C(F)(F)C(F)(F)C(F)(F)C12F (stereo not shown)	CYP1A2	inhibitor	–	Tox21 screening	IC50	inactive
O=C1NC(=O)C(c2ccccc2)(c2ccccc2)N1	–	–	dog	–	fraction unbound	0.259
CC(O)C(C)n1ncn(-c2ccc(N3CCN(c4ccc(OCC5COC(Cn6cncn6)(c6ccc(Cl)cc6Cl)O5)cc4)CC3)cc2)c1=O (stereo not shown)	CYP3A4 human	inhibitor	–	with: midazolam	IC50	0.0046 µM
O[C@H]1CCCN[C@@H]1CCCn1cnc2c(Cl)c(Cl)ccc21	CYP2D6	inhibitor	–	–	IC50	5.2 µM

For quick reference, copied from above:
SMILES	tested on	test	test system	conditions	endpoint	result
COc1cc([C@@H]2c3cc4c(cc3[C@@H](O[C@@H]3O[C@@H]5CO[C@@H](C)O[C@H]5[C@H](O)[C@H]3O)[C@H]3COC(=O)[C@H]23)OCO4)cc(OC)c1O	MRP1	inhibitor	–	–	IC50	48 µM
FC1(F)C(F)(F)C(F)(F)C2(F)C(F)(C1(F)F)C(F)(F)C(F)(F)C1(F)C(F)(F)C(F)(F)C(F)(F)C(F)(F)C12F (stereo not shown)	CYP1A2	inhibitor	–	Tox21 screening	IC50	inactive
